Results gathered from unrelated publications.
A part holds a random share of what one study measured. Positions count from the first letter of the parent shown.
Sequence of UniProt P61075 (whole entry, looked up): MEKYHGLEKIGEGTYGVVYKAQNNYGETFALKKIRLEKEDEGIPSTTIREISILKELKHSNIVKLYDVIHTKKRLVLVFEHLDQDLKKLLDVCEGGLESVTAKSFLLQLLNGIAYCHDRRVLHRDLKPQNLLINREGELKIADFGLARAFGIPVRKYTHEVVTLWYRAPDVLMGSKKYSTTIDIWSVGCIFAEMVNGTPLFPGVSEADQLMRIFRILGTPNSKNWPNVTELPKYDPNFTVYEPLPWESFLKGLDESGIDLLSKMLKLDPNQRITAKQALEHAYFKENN

Block 1 — technique: competition protein-binding microarray; form: double-stranded DNA, one strand shown; sample: in vitro; concentration: 2 µM; together with: Pho4 competitor, 0.05 µM; reading: higher = stronger binding; endpoint: fluorescence intensity; constant ends, left off below: … GTCTTGATTCGCTTGACGCTGCTG
Target: Centromere-binding protein 1, full length, His-tagged (CBF1, Saccharomyces cerevisiae, UniProt P17106, residues 1-351)
Sequence of UniProt P17106 (whole entry, looked up): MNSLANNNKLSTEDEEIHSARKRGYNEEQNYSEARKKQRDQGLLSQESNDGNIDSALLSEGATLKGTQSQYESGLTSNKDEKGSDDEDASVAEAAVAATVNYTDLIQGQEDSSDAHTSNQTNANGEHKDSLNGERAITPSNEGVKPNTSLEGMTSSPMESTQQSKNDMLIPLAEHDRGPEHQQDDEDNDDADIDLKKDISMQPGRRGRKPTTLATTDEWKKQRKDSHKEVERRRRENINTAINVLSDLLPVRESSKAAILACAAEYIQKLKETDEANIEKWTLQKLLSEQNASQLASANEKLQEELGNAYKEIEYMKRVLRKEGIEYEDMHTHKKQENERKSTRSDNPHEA
Notes: whole 60-bp probe, lowest competitor level
AAAGCGGTAATTTGTCACGCAACTTCACATATCTAT: 128 a.u.
CTCCTTTGGGATACCACCGTGGGTAATCTCAGCGGG: 56.7 a.u.
CTTCTGTAAATTTGCCACGTGGGTGGACGCGCCCCG: 971 a.u.
GTCTTGTCTCATTTTCACGTGTAGTTCCCCACTTCA: 684 a.u.
ATCTTGACATTAGATCAGCTGATAAGTTTTCAACTT: 899 a.u.
TTTTCAATCGTTGGCTACGTGCGGACACTTGTTTTG: 236 a.u.
TTGAATGTAGTTGATCGCGTGTCTGTTGGCCAAATC: 97.6 a.u.
TGCAAGAAAAAATAGGTCGTGACAAATTCGCCCCTA: 152 a.u.

Block 2 — technique: protein-binding microarray; form: double-stranded DNA, one strand shown; sample: in vitro; concentration: not given; reading: higher = stronger binding; endpoint: E-score
Target: Max dimerization protein 1, bHLH-zipper, MAX partner unstated (MXD1, Homo sapiens, UniProt Q05195, residues 56-136)
Notes: k-mer, scored over probes, only values ≥0.25
Construct (chain): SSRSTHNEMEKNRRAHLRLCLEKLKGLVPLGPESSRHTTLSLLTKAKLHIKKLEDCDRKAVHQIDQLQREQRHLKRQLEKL
ACATGTTG: 0.376
CAGGTGTA: 0.257
ATAGCGTG: 0.38
ACGCGCAC: 0.282
CACGTCCC: 0.257
ATTCCCCC: 0.279
GCATGCCA: 0.319
CCATGAGG: 0.4

Block 3 — target: OGT, full length, His-tagged (human); technique: phage display, sequencing; sample: in vitro; concentration: 1 µg OGT; reference: input library; reading: higher = stronger binding; endpoint: fold enrichment; starting sequence: peptide; GDFPVMFMPKYSIIY
Notes: single substitutions, 15-mer displayed peptide, unchanged parent 5.27
Y15P: 1.33 fold
G1V: 5.17 fold
D2Q: 5.79 fold
S12V: 5.26 fold
G1L: 6.5 fold
Y15N: 1.57 fold
V5F: 5.48 fold
I14E: 2.65 fold

Block 4 — target: CCNE2, cyclin fold, Cln2 fusion (human); technique: yeast growth competition, sequencing; sample: yeast; notes: strong parent motif; reference: not given; reading: higher = stronger binding; endpoint: normalised enrichment score; starting sequence: viral docking peptide; YKVKRRLVFGADD
YKVKRRLFFGADD [V8F]: 6.21
YKVKRRLVPGADD [F9P]: 0.47
YKVKRRFVFGADD [L7F]: 0.365
YKVKRMLVFGADD [R6M]: 2.35
YKVKRRLVFLADD [G10L]: 4.24
YKVKRRLVFHADD [G10H]: 4.72
YYVKRRLVFGADD [K2Y]: 4.82
YKVKNRLVFGADD [R5N]: 0.253
YKGKRRLVFGADD [V3G]: 1.4
YLVKRRLVFGADD [K2L]: 5.19
YKYKRRLVFGADD [V3Y]: 3.56
YKVKQRLVFGADD [R5Q]: 0.581
YKVKRRLQFGADD [V8Q]: 5.43
YKVKRRLSFGADD [V8S]: 5.11
YQVKRRLVFGADD [K2Q]: 5.71
YKVKWRLVFGADD [R5W]: 1.01
YKVHRRLVFGADD [K4H]: 1.35
YKVKRRLLFGADD [V8L]: 5
YKVKRRLVFSADD [G10S]: 5.06
YKVKRRLVFGAID [D12I]: 5.33
YKVKRNLVFGADD [R6N]: 1.07
YKVKRRWVFGADD [L7W]: 0.616
YKVERRLVFGADD [K4E]: 0.701
YKVKRRLKFGADD [V8K]: 5.05
YIVKRRLVFGADD [K2I]: 4.23

Single results of other studies
H2BC21 (Homo sapiens, UniProt Q16778)
interaction screen (H2AC1 (Homo sapiens, UniProt Q96QV6); cross-linking MS; hits only): cross-linked

C[C@H](c1cccc(C#N)c1)n1cc(Cl)cc(C(N)=O)c1=N
remaining binding (Cyclin-dependent kinase 2 homolog (CRK2, Plasmodium falciparum, UniProt P61075); cell-free assay, competition with immobilised ligand; 1 µM): 100%

Some of these lines once more (block 4):
YKVKRRFVFGADD [L7F]: 0.365
YKVKRMLVFGADD [R6M]: 2.35
YKVKRRLVFLADD [G10L]: 4.24
